Results collected from several papers.
Each line is one published result; not all experiments were run side by side. ± gives the spread as reported.
MC4R: Melanocortin receptor 4 (MC4R, Homo sapiens, UniProt P32245)
Sequence of UniProt P32245 (whole entry, unmodified, looked up): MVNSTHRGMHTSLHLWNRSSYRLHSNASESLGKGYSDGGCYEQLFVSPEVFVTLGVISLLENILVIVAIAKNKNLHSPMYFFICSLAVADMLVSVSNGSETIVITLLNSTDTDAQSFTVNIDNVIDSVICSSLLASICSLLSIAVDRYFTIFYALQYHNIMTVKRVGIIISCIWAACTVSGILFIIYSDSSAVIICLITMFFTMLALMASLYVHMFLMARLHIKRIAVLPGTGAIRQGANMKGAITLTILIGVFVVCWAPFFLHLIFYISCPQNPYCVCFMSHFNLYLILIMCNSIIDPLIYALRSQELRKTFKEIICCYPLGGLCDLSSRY
MC4R L133M: Melanocortin receptor 4 (MC4R, Homo sapiens, UniProt P32245, L133M)

Structure (SMILES) = N=C(N)NCCC[C@H](NC(=O)[C@@H](Cc1ccccc1)NC(=O)[C@H](Cc1c[nH]cn1)NC(=O)C=Cc1ccc(O)cc1)C(=O)N[C@@H](Cc1c[nH]c2ccccc12)C(N)=O; target = MC4R; test = binding, TR-FRET competition; test system = HEK293 transfected; setting = 1 h, 37 °C, with: 10 nM Eu-NDP-α-MSH; endpoint = Ki; value = > 10000 nM
Structure (SMILES) = N=C(N)NCCC[C@H](NC(=O)[C@H](CC(=O)O)NC(=O)[C@@H]1CSCC(=O)NCC(=O)N[C@@H](Cc2c[nH]cn2)C(=O)N[C@H](Cc2ccccc2)C(=O)N[C@@H](CCCNC(=N)N)C(=O)N[C@@H](Cc2c[nH]c3ccccc23)C(=O)N1)C(=O)N[C@@H](Cc1ccccc1)C(=O)NCC(N)=O; target = MC4R; test = cAMP, agonist; endpoint = EC50; value = 800 nM
Structure (SMILES) = CC[C@H](C)[C@H](NC(=O)[C@H](CCC(N)=O)NC(=O)[C@H](CCC(=O)O)NC(=O)[C@H](CCC(=O)O)NC(=O)[C@H](CCCCN)NC(=O)[C@@H]1CCCN1C(=O)[C@H](CC(C)C)NC(=O)[C@H](CO)NC(=O)[C@H](CO)NC(=O)[C@@H](N)CC(C)C)C(=O)NCC(=O)N[C@@H](CCCCN)C(=O)N[C@@H](CO)C(=O)N[C@@H](CO)C(=O)N[C@H](C(=O)N[C@@H](CCCNC(=N)N)C(=O)NCC(=O)N[C@@H](CCCNC(=N)N)C(=O)N[C@@H](CCCCN)C(=O)N[C@@H](CO)C(=O)N[C@@H](CO)C(=O)N[C@@H](CCCNC(=N)N)C(=O)N[C@@H](CCCNC(=N)N)C(=O)N[C@@H](CCCCN)C(=O)N[C@@H](CCCCN)C(N)=O)[C@@H](C)O; target = MC4R; test system = HEK-293T transfected; setting = 2 h, 37 °C, with: Eu-NDP-MSH; endpoint = Ki; value = > 5000 nM
Structure (SMILES) = CCCC[C@H](NC(=O)[C@H](CO)NC(=O)[C@H](Cc1ccc(O)cc1)NC(=O)[C@H](CO)NC(C)=O)C(=O)N[C@@H](CCC(=O)O)C(=O)N[C@@H](Cc1c[nH]cn1)C(=O)N[C@H](Cc1ccc2ccccc2c1)C(=O)N[C@@H](CCCNC(=N)N)C(=O)N[C@@H](Cc1c[nH]c2ccccc12)C(=O)NCC(=O)N[C@@H](CCCCN)C(=O)N1CCC[C@H]1C(=O)N[C@H](C(=O)NCC(=O)N[C@@H](CCCCN)C(=O)N[C@@H](CCCCN)C(=O)N[C@@H](CCCNC(=N)N)C(N)=O)C(C)C; target = MC4R L133M; test = cAMP, agonist; endpoint = EC50; value = 121 nM
Structure (SMILES) = CC[C@H](C)[C@H](NC(=O)CN)C(=O)N[C@H](C(=O)N[C@@H](CC(N)=O)C(=O)N[C@H](C(=O)N[C@@H](CC(C)C)C(=O)N[C@@H](CCC(N)=O)C(=O)N[C@@H](CCC(N)=O)C(=O)N[C@@H](Cc1ccc(O)cc1)C(=O)N[C@@H](Cc1ccc(O)cc1)C(=O)N[C@@H](CO)C(=O)N[C@@H](CCC(N)=O)C(=O)N[C@H](C(=O)N[C@@H](CCCNC(=N)N)C(=O)NCC(=O)NCC(=O)N[C@@H](CCCNC(=N)N)C(=O)N[C@@H](CO)C(=O)N[C@@H](C)C(=O)N[C@H](C(=O)N[C@@H](CC(C)C)C(=O)N[C@@H](CO)C(=O)N[C@@H](CO)C(=O)N[C@@H](CC(C)C)C(=O)N1CCC[C@H]1C(=O)N[C@@H](CCCCN)C(=O)N[C@@H](CCC(=O)O)C(=O)N[C@@H](CCC(=O)O)C(=O)N[C@@H](CCC(N)=O)C(=O)N[C@H](C(=O)NCC(=O)N[C@@H](CCC(N)=O)C(=O)N[C@@H](CO)C(=O)N[C@@H](CO)C(=O)N[C@H](C(=O)N[C@@H](CCC(N)=O)C(=O)NCC(=O)N[C@@H](CCC(N)=O)C(=O)N[C@@H](CCC(N)=O)C(=O)N[C@@H](CO)C(=O)N[C@@H](CO)C(=O)N[C@@H](CCCNC(=N)N)C(=O)N[C@@H](CCCNC(=N)N)C(=O)N[C@@H](CCCCN)C(=O)N[C@@H](CCCCN)C(N)=O)[C@@H](C)O)[C@@H](C)CC)C(C)C)C(C)C)[C@@H](C)O)[C@@H](C)CC; target = MC4R; test system = HEK-293T transfected; setting = 2 h, 37 °C, with: Eu-NDP-MSH; endpoint = Ki; value = > 5000 nM
Structure (SMILES) = N=C(N)NCCC[C@H](NC(=O)[C@@H](Cc1ccccc1)NC(=O)[C@H](Cc1c[nH]cn1)NC(=O)CCCCCn1cc(COc2cc(OCc3cn(CCCCCC(=O)N[C@@H](Cc4c[nH]cn4)C(=O)N[C@H](Cc4ccccc4)C(=O)N[C@@H](CCCNC(=N)N)C(=O)N[C@@H](Cc4c[nH]c5ccccc45)C(N)=O)nn3)cc(OCc3cn(CCCCCC(=O)N[C@@H](Cc4c[nH]cn4)C(=O)N[C@H](Cc4ccccc4)C(=O)N[C@@H](CCCNC(=N)N)C(=O)N[C@@H](Cc4c[nH]c5ccccc45)C(N)=O)nn3)c2)nn1)C(=O)N[C@@H](Cc1c[nH]c2ccccc12)C(N)=O; target = MC4R; test = ligand displacement; endpoint = Ki; value = 45 nM
Structure (SMILES) = CCCC[C@H](NC(=O)[C@@H](NC(=O)[C@@H](N)Cc1ccc(O)cc1)C(C)C)C(=O)NCC(=O)N[C@@H](Cc1c[nH]cn1)C(=O)N[C@@H](Cc1ccccc1)C(=O)N[C@@H](CCCN=C(N)N)C(=O)N[C@@H](Cc1c[nH]c2ccccc12)C(=O)N[C@@H](CC(=O)O)C(=O)N[C@@H](CCCN=C(N)N)C(=O)N[C@@H](Cc1ccccc1)C(=O)NCC(N)=O; target = MC4R; test = ligand displacement, radioligand; endpoint = IC50; value = 64 nM
Structure (SMILES) = CCCC[C@H](NC(=O)[C@H](CO)NC(=O)[C@H](Cc1ccc(O)cc1)NC(=O)[C@H](CO)NC(C)=O)C(=O)N[C@@H](CCC(=O)O)C(=O)N[C@@H](Cc1c[nH]cn1)C(=O)N[C@H](Cc1ccccc1)C(=O)N[C@@H](CCCNC(=N)N)C(=O)N[C@@H](Cc1c[nH]c2ccccc12)C(=O)NCC(=O)N[C@@H](CCCCN)C(=O)N1CCC[C@H]1C(=O)N[C@H](C(=O)NCC(=O)N[C@@H](CCCCN)C(=O)N[C@@H](CCCCN)C(=O)N[C@@H](CCCNC(=N)N)C(N)=O)C(C)C; target = MC4R L133M; test = cAMP, agonist; endpoint = EC50; value = 2.3 nM
Structure (SMILES) = N=C(N)NCCC[C@H](NC(=O)[C@@H](Cc1ccccc1)NC(=O)[C@H](Cc1c[nH]cn1)NC(=O)CCc1cn(CC(=O)NCCC(=O)NCCCC(CCCNC(=O)CCNC(=O)Cn2cc(CCC(=O)N[C@@H](Cc3c[nH]cn3)C(=O)N[C@H](Cc3ccccc3)C(=O)N[C@@H](CCCNC(=N)N)C(=O)N[C@@H](Cc3c[nH]c4ccccc34)C(N)=O)nn2)(NC(=O)CNC(=O)CCNC(=O)Cn2cc(CCC(=O)N[C@@H](Cc3c[nH]cn3)C(=O)N[C@H](Cc3ccccc3)C(=O)N[C@@H](CCCNC(=N)N)C(=O)N[C@@H](Cc3c[nH]c4ccccc34)C(N)=O)nn2)C(=O)NCCC(N)=O)nn1)C(=O)N[C@@H](Cc1c[nH]c2ccccc12)C(N)=O (some centres unmarked); target = MC4R; test = binding, competitor, time-resolved fluorescence; test system = HEK293 overexpressing MC4R; setting = with: 10 nM Eu-NDP-α-MSH; endpoint = IC50; value = 73 ± 3.5 nM
Structure (SMILES) = N=C(N)NCCC[C@H](NC(=O)[C@@H](Cc1ccccc1)NC(=O)[C@H](Cc1c[nH]cn1)NC(=O)CCCCCn1cc(CN(Cc2cn(CCCCCC(=O)N[C@@H](CO)C(N)=O)nn2)Cc2cn(CCCCCC(=O)N[C@@H](CO)C(N)=O)nn2)nn1)C(=O)N[C@@H](Cc1c[nH]c2ccccc12)C(N)=O; target = MC4R; test = ligand displacement; endpoint = Ki; value = 2210 nM
Structure (SMILES) = CCCC[C@H](NC(=O)[C@H](CO)NC(C)=O)C(=O)N[C@@H](CCC(=O)O)C(=O)N[C@@H](Cc1c[nH]cn1)C(=O)N[C@H](Cc1ccccc1)C(=O)N[C@@H](CCCNC(=N)N)C(=O)N[C@@H](Cc1c[nH]c2ccccc12)C(N)=O; target = MC4R; test = binding, time-resolved fluorescence competition; endpoint = IC50; value = 39 ± 4 nM

A few entries again:
Structure (SMILES) = N=C(N)NCCC[C@H](NC(=O)[C@H](CC(=O)O)NC(=O)[C@@H]1CSCC(=O)NCC(=O)N[C@@H](Cc2c[nH]cn2)C(=O)N[C@H](Cc2ccccc2)C(=O)N[C@@H](CCCNC(=N)N)C(=O)N[C@@H](Cc2c[nH]c3ccccc23)C(=O)N1)C(=O)N[C@@H](Cc1ccccc1)C(=O)NCC(N)=O; target = MC4R; test = cAMP, agonist; endpoint = EC50; value = 800 nM
